Assay results gathered from unrelated publications.
Protocols differ between the studies behind these lines. “And” joins repeats or separate records; there may be more than shown. ± marks the error that the study gave.

SMILES | target | assay | test system | conditions | scale | measurement | result
O=C(NN=Cc1ccc(C[n+]2ccccc2)cc1)c1ccc2ccc3ccc(C(=O)NN=Cc4ccc(C[n+]5ccccc5)cc4)nc3c2n1.[Br-].[Br-] | myc22 MYC G4-DNA parallel | FRET melting |  | 1 µM, K1 buffer, DNA 0.2 µM, together with: ds26 10 µM |  | ΔTm | 30.5 ± 0.1 °C
COc1cccc(Nc2nc(NCC3CCCO3)c3ccccc3n2)c1.Cl (stereo not shown) | Renilla luciferase reporter mRNA | in vitro translation, inhibitor | Trypanosoma cruzi translation extract | 30 µM |  | inhibition | 52.2%
CCNC(=O)/C=C/c1cccc(Br)c1 | endogenous leucine transporters, hamster | L-[14C]leucine uptake | CHO-BC cells | 30 µM, 6 min, 37 °C, with sodium |  | L-leucine uptake | 45.1 nmol/mg protein and 46.4 nmol/mg protein and 42.2 nmol/mg protein
COc1cccc(CCNc2nc3cc(C(=O)O)ccc3c3cnccc23)c1 | DYRK and HIPK kinases | enzyme activity, inhibitor, eight-kinase enzymatic panel |  | 1 µM, percent of control below 10 |  | number of kinases inhibited | 1
C[n+]1cccc2cc(C=NNC(=O)c3ccc4ccc5ccc(C(=O)NN=Cc6ccc7c(ccc[n+]7C)c6)nc5c4n3)ccc21.[I-].[I-] | myc22 MYC G4-DNA parallel | FRET melting |  | 1 µM, K1 buffer, DNA 0.2 µM |  | ΔTm | 29.3 ± 1 °C
c1coc(-c2n[nH]cc2-c2ccnc3ccccc23)c1 | IRE1 (Candida albicans) | kinase binding, MIB/MS competition | Candida albicans lysate | 10 µM | relative to: DMSO | log2 fold change | -0.11
O=C(O)c1ccc2c(c1)nc(Nc1ccccc1)c1ccncc12 | DYRK and HIPK kinases | enzyme activity, inhibitor, eight-kinase enzymatic panel |  | 1 µM, percent of control below 10 |  | number of kinases inhibited | 3
Fc1ccccc1Nc1nc(NCC2CCCO2)c2ccccc2n1 (stereo not shown) | Renilla luciferase reporter mRNA | in vitro translation, inhibitor | Trypanosoma cruzi translation extract | 40 µM |  | inhibition | 79%
Oc1ccccc1-c1n[nH]cc1-c1ccnc2ccccc12 | KSP1 (Candida albicans) | kinase binding, MIB/MS competition | Candida albicans lysate | 1 µM | relative to: DMSO | log2 fold change | -0.1
O=C(O)c1ccc2c(c1)nc(NCc1ccccc1)c1ncncc12 | DYRK and HIPK kinases | enzyme activity, inhibitor, eight-kinase enzymatic panel |  | 1 µM, percent of control below 10 |  | number of kinases inhibited | 0
Cl.Fc1ccc(Nc2nc(NCC3CCCO3)c3ccccc3n2)cc1 (stereo not shown) | Renilla luciferase reporter mRNA | in vitro translation, inhibitor | Trypanosoma cruzi translation extract | 30 µM |  | inhibition | 49.7%
O=C(O)c1ccc2c(c1)nc(Nc1ccc(Cl)cc1)c1ncncc12 | DYRK and HIPK kinases | enzyme activity, inhibitor, eight-kinase enzymatic panel |  | 1 µM, percent of control below 10 |  | number of kinases inhibited | 5
Cl.OCCNc1nc(Nc2ccccc2)nc2ccccc12 | Renilla luciferase reporter mRNA | in vitro translation, inhibitor | Trypanosoma cruzi translation extract | 10 µM |  | inhibition | 63.1%

For quick reference, copied from above:
SMILES | target | assay | test system | conditions | scale | measurement | result
O=C(O)c1ccc2c(c1)nc(NCc1ccccc1)c1ncncc12 | DYRK and HIPK kinases | enzyme activity, inhibitor, eight-kinase enzymatic panel |  | 1 µM, percent of control below 10 |  | number of kinases inhibited | 0
